{"data": "Measured values from different studies", "note": "Every numbered part comes from another study and shows a few of its results, in no order. Values joined by “and” are separate records of one study, mostly repeats; a detail may differ."}
{"data": "Study 1", "target": "Ras GTPase-activating protein-binding protein 1, full length (G3BP1, Homo sapiens, UniProt Q13283)", "method": "RNA Bind-n-Seq", "form": "RNA", "sample": "in vitro", "concentration": "200 nM", "setting": "whole 134-nt RNA, ends assumed", "with": "150 mM KCl", "baseline": "input library", "reading": "higher = stronger binding", "shared flanks, not repeated": "GGGAGUUCUACAGUCCGACGAUC … UGGAAUUCUCGGGUGUCAAGG", "sequence of UniProt Q13283 (whole entry, looked up)": "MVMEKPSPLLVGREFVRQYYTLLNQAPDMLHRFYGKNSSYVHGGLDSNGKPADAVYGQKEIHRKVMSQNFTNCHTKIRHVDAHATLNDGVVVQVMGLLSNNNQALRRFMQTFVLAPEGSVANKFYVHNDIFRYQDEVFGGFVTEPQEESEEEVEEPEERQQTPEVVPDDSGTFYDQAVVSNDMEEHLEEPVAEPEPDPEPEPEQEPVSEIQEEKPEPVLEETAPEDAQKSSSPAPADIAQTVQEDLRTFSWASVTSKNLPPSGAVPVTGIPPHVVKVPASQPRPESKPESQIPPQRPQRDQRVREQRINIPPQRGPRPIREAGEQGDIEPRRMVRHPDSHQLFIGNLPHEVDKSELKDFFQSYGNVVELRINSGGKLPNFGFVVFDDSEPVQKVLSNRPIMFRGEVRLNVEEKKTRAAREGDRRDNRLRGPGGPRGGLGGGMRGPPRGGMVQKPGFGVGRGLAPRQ"}
{"Strand": "UAACUUUAGAGGAGGAUCUGAUGGAUAUGGCAGUGGACGUGGAUUUGGGGAUGGCUAUAAUGGGUAUGGAGGUGGACCUGGAGGUGGCAA", "log2 enrichment": 0.48}
{"Strand": "CCUGUGCUACACAUCGUAUGUACCGAAUCGGGGUUUUUUGGUUUUUUGGGGUUUUUUGGGGAAAGUAUUAUGUUACGCCGUUCGGAUCUG", "log2 enrichment": -0.644}
{"Strand": "UGGGAGGUGGAUUUUGUUUAUUUUUUUAGCUCAUUUCCAGGGGUGGGAAUUUUUUUUUAAUAUGUGUCAUGAAUAAAGUUGUUUUUCAAA", "log2 enrichment": 0.389}
{"Strand": "UGGCCCUGGUGGCAUGCGGGGAGGAAGAGGUGGCCUCAUGGAUCGUGGUGGUCCCGGUGGAAUGCUCAGAGGUGGCCGUGGUGGAGACAG", "log2 enrichment": 0.132}
{"Strand": "CAAGUCCUGUGCUACACAUCGUAUGUACCGAAUCGGAAAGGUUUUUUUGGUUUGGAAAGUAUUAUGUUACGCCGUUCGGAUCUGCACUUC", "log2 enrichment": -1.27}
{"Strand": "CCUCAAGUCCUGUGCUACACAUCGUAUGUACCGAAUCGGAGGAAAGGAAAGGAAAGUAUUAUGUUACGCCGUUCGGAUCUGCACUUCCAG", "log2 enrichment": -0.0975}
{"Strand": "ACCAUGCAGGUGGGCAUCUUUGGGAAGUGGGGCAAGGGGGGGAUAGGGAGGGGGGUAACACUUUGGGAACAGGUGGUAAAAGGUCGUUUC", "log2 enrichment": 1.22}
{"Strand": "UCCUGUGCUACACAUCGUAUGUACCGAAUCGGGGAAAAAAGGAAAAAAGGGAAAAAAGGGAAAGUAUUAUGUUACGCCGUUCGGAUCUGC", "log2 enrichment": -0.189}
{"Strand": "GGGACGUCAGCAUCGGCAUCAAGUGUGCCCCUGGAGUGGUAGGCCCCGCCGAAGCUGACAUCGACUUCGACAUCAUCCGCAAUGACAAUG", "log2 enrichment": -2.03}
{"Strand": "UGACUUUAGGAGAUACCUUAACUCGACGUUCCAUUAGCCAGCAGAAGUCCGGAGUUUCCAUUACCAUUGAUGACCCAGUCCGAACUGCCC", "log2 enrichment": -0.0508}
{"Strand": "GCAGGAAGUAAAAACAAAUGGAAAUGCUUCGGAUAGUGGCAGGGGUGGGGGUUGCUAAGGAAAGGGUGGGAUGAAAGUGGGUAAAGAGUU", "log2 enrichment": 0.753}
{"Strand": "CUCAAGUCCUGUGCUACACAUCGUAUGUACCGAAUCGGCCGGGGCCGGGCCGGGAAAGUAUUAUGUUACGCCGUUCGGAUCUGCACUUCC", "log2 enrichment": -0.423}
{"Strand": "UCAAGUCCUGUGCUACACAUCGUAUGUACCGAAUCGGGUUGGGUUGGGGUUGGGGAAAGUAUUAUGUUACGCCGUUCGGAUCUGCACUUC", "log2 enrichment": 1.22}
{"data": "Study 2", "target": "Histone acetyltransferase KAT6A, both winged helices, GST fusion (KAT6A, Homo sapiens, UniProt Q92794, residues 1-181)", "method": "protein binding microarray", "form": "double-stranded DNA, one strand shown", "sample": "in vitro", "concentration": "not given", "setting": "8-mer, flanks averaged, mean of 2 arrays, mostly near background", "baseline": "not given", "reading": "higher = stronger binding", "Construct (chain)": "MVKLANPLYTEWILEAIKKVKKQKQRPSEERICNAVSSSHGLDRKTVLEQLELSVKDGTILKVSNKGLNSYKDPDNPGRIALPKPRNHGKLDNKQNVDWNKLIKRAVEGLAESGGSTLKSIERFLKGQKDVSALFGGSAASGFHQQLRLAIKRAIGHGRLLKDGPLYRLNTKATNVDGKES"}
{"Strand": "CATGACCG", "E-score": 0.135}
{"Strand": "ACTGCTGG", "E-score": -0.207}
{"Strand": "CACTTCTA", "E-score": -0.181}
{"Strand": "ATCACACG", "E-score": 0.19}
{"Strand": "ACAACGGC", "E-score": 0.22}
{"Strand": "ATCTCAAC", "E-score": 0.032}
{"Strand": "TCCTGAAA", "E-score": 0.00804}
{"Strand": "ATGCAATA", "E-score": -0.0997}
{"Strand": "GGAGATCC", "E-score": -0.0443}
{"Strand": "CTCACGGA", "E-score": 0.221}
{"Strand": "GAACCCCC", "E-score": -0.0455}
{"Strand": "CCGGGGGA", "E-score": 0.201}
{"Strand": "CACTGCAA", "E-score": -0.0405}
{"Strand": "AACATAAC", "E-score": 0.079}
{"Strand": "ATGGGACC", "E-score": -0.17}
{"Strand": "TAAGTCAA", "E-score": -0.0949}
{"data": "Study 3", "target": "Sal-like protein 4, full length isoform B (SALL4, Homo sapiens, UniProt Q9UJQ4-2, residues 1-616)", "method": "universal PBM", "form": "double-stranded DNA, one strand shown", "sample": "in vitro", "concentration": "not given", "setting": "8-mer, flanks averaged, mean of replicates", "reading": "higher = stronger binding", "Construct (chain)": "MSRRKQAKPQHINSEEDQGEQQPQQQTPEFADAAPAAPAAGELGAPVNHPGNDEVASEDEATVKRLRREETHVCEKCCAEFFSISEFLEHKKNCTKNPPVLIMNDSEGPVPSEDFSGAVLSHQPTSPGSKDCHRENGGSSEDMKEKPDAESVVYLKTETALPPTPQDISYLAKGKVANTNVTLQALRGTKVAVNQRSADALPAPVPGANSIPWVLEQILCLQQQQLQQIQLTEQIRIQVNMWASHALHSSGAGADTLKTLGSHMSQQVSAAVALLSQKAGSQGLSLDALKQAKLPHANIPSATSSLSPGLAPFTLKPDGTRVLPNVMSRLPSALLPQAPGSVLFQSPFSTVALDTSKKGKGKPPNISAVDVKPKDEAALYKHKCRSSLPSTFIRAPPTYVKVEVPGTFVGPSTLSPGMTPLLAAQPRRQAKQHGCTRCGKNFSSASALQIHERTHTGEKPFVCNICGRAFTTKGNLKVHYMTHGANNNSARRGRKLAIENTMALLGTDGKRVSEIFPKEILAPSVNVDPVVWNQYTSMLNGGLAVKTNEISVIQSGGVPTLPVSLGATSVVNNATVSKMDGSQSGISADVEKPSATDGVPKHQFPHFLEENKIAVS"}
{"Strand": "TAACGGCA", "E-score": -0.0151}
{"Strand": "AGGTAAAG", "E-score": 0.111}
{"Strand": "CAACGTTG", "E-score": 0.221}
{"Strand": "ACGAGCAT", "E-score": 0.113}
{"Strand": "AAACGCTG", "E-score": -0.0889}
{"Strand": "AAACTTCA", "E-score": 0.212}
{"Strand": "ACAGGCAA", "E-score": 0.0644}
{"Strand": "AAAGCATG", "E-score": 0.0958}
{"Strand": "CCCCCAGG", "E-score": -0.317}
{"Strand": "GGGGTCGA", "E-score": -0.3}
{"Strand": "ACTAGTTG", "E-score": -0.0338}
{"Strand": "AGACGTCG", "E-score": -0.0754}
{"data": "Other studies, line by line"}
{"Molecule": "PhoQ, residues 284 288 289 292 302 303 GLASVI", "target": "PhoP, residues 12 14 15 18 19 LWHSL (Escherichia coli, UniProt P23836)", "test": "Sort-seq, measured: YFP reporter", "test system": "E. coli", "conditions": "PhoQ-PhoP variant library, with: 10 µM Mg2+", "how to read": "baseline: high Mg2+ state, higher = stronger signaling", "endpoint": "fold induction", "result": "7.55 and 3.75"}
{"note": "For quick reference, copied from above (study 1):"}
{"Strand": "UGGGAGGUGGAUUUUGUUUAUUUUUUUAGCUCAUUUCCAGGGGUGGGAAUUUUUUUUUAAUAUGUGUCAUGAAUAAAGUUGUUUUUCAAA", "log2 enrichment": 0.389}
{"Strand": "GCAGGAAGUAAAAACAAAUGGAAAUGCUUCGGAUAGUGGCAGGGGUGGGGGUUGCUAAGGAAAGGGUGGGAUGAAAGUGGGUAAAGAGUU", "log2 enrichment": 0.753}
{"Strand": "UCAAGUCCUGUGCUACACAUCGUAUGUACCGAAUCGGGUUGGGUUGGGGUUGGGGAAAGUAUUAUGUUACGCCGUUCGGAUCUGCACUUC", "log2 enrichment": 1.22}
{"Strand": "UGACUUUAGGAGAUACCUUAACUCGACGUUCCAUUAGCCAGCAGAAGUCCGGAGUUUCCAUUACCAUUGAUGACCCAGUCCGAACUGCCC", "log2 enrichment": -0.0508}
{"Strand": "UGGCCCUGGUGGCAUGCGGGGAGGAAGAGGUGGCCUCAUGGAUCGUGGUGGUCCCGGUGGAAUGCUCAGAGGUGGCCGUGGUGGAGACAG", "log2 enrichment": 0.132}
